Results pooled from the literature.
Parts stem from different laboratories: compare values within a part only. Changes are numbered by the printed parent chain.

Study 1
Target: Histone acetyltransferase KAT6A, winged helix 1, GST fusion (KAT6A, Homo sapiens, UniProt Q92794, residues 1-85)
Technique: protein binding microarray
Form: double-stranded DNA, one strand shown
Sample: in vitro
Tested at: not given
Notes: 8-mer, flanks averaged, mean of 2 arrays, mostly near background
Relative to: not given
Direction: higher = stronger binding
Residues (chain): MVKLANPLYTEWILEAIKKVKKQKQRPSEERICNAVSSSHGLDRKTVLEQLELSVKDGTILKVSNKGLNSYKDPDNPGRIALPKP
`CAGGACTA` gave an E-score of -0.174.
`GGACGCAA` has an E-score of 0.142.
The E-score of `ACTGTTAC` is reported as 0.0405.
For `GCCATGGC`, the E-score was 0.0854.
`ATGCCACG` gave an E-score of 0.00394.
With `CCGGAAAG` the E-score was 0.0638.
`GGCCTGTA` has an E-score of 0.022.
The E-score of `ACGTCTGG` is reported as -0.147.
With `AAAGCACC` the E-score was -0.102.
The E-score of `CTTTAAGA` is reported as -0.106.
For `AGGATCCA`, the E-score was -0.107.
The E-score of `AGGTTGTG` is reported as -0.255.
`CATCGTGG` has an E-score of -0.0204.
With `AGGTTTGG` the E-score was -0.113.
The E-score of `TGGCCAAA` is reported as -0.143.
`GCAAACGC` gave an E-score of 0.0926.
With `AGGGAAAG` the E-score was -0.164.
`CACCAGTC` gave an E-score of -0.144.
The E-score of `CATCTTGC` is reported as -0.0615.
For `CCAGCTTA`, the E-score was 0.0343.
For `CTACGCAG`, the E-score was -0.0188.
With `CGTATCTC` the E-score was 0.106.
`AGATTAAA` has an E-score of -0.0596.
The E-score of `AGAGCCTC` is reported as 0.0321.
With `GCCATCAA` the E-score was -0.0571.

Study 2
Target: ABI1, truncated, D143A, DHFR fusion (Arabidopsis thaliana)
Technique: DHFR PCA, deep sequencing
Sample: yeast
Notes: methotrexate growth selection, single substitutions
Together with: (+)-ABA 0.39 µM
Relative to: wild-type fitted maximum
Direction: higher = stronger binding
Parent: PYL1, truncated, DHFR fusion (Arabidopsis thaliana); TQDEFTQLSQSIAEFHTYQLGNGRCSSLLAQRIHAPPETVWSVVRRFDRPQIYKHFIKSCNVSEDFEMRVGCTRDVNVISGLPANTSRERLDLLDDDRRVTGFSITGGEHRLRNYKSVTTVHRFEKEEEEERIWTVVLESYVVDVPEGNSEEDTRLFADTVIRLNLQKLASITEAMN
Under “relative binding score”, `W134V` is recorded as 35.3%.
Under “relative binding score”, `Y18K` is recorded as 2.65%.
For `I133Y`, “relative binding score” read 40.2%.
`G81V` — result for “relative binding score”: 1.09%.
`R88E` — result for “relative binding score”: 21.7%.
For `E67N`, “relative binding score” read 26.1%.
For `K126V`, “relative binding score” read 60.9%.
`S104A`: “relative binding score” -10.3%.
Under “relative binding score”, `D92W` is recorded as 1.58%.
`R49G` — result for “relative binding score”: 4.32%.
For `R132N`, “relative binding score” read 64.8%.
`R45I` — result for “relative binding score”: -1.88%.
Under “relative binding score”, `E89I` is recorded as 15%.
`G81E` — result for “relative binding score”: -1.23%.
Under “relative binding score”, `D92T` is recorded as -10.6%.
Under “relative binding score”, `K54F` is recorded as -21.2%.
`F15D` — result for “relative binding score”: -7.36%.
`I105P`: “relative binding score” 8.77%.
`F157G`: “relative binding score” -13.4%.
Under “relative binding score”, `P36L` is recorded as 14.8%.

Study 3
Target: RNA binding protein fox-1 homolog 2, RRM domain, GST-SBP tag (RBFOX2, Homo sapiens, UniProt O43251-10, residues 100-194)
Technique: RNA Bind-n-Seq
Form: RNA
Sample: in vitro
Tested at: 365 nM
Notes: natural RNA segment, single round, ends assumed
Relative to: no-protein control
Direction: higher = stronger binding
Target sequence (chain): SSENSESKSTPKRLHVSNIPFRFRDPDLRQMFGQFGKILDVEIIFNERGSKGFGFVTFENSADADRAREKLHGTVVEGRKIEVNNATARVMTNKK
`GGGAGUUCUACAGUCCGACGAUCUUGAAGUAAACCUCAGUGCCUGAGACUUUUCUACCAAGCCACACAGCUGCAGCAACUGCAGAUACUGCGGGCUGAGCAGGAGCAGUGGUGGCGCCUGCCCUGAGGCUGCCUGGAAUUCUCGGGUGCCAA`: “RBNS enrichment (R)” 0.276.
`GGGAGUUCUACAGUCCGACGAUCCAGUAGAGGUCAGAGCUGGUUACCUGCCUUAGUUACAAGUGUCGGUUAUGUUCUGGGUCUUUGUAAUCGCUGAUCUCUGUAACAGAGCCUCUGUUUAUUUUUGCUUGUUGUGGAAUUCUCGGGUGCCAA`: “RBNS enrichment (R)” 1.05.
For `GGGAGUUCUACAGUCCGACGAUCCGGGUGCCGUGGCUCAUGCCUGUCAUCCCAGCAUUUGGGAGGCUGAGGCAGGCAGAUCACCUGAGGCCAGGAGUUCGAGACCAGCCUGGCUGGCUAGCAUGGUGAGACCGUGGAAUUCUCGGGUGCCAA`, “RBNS enrichment (R)” read 14.
For `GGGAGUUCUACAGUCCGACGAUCCAAUCUGGCAUCCCCACGAUGCCUCUGGAGAGAUGGCCUUGAUUGCCCCUCAAAGCCACCUGAACCGUCGUCAACUUACCCAGCCUGUCUCCAUUAAACACCAGGAACCAUGGAAUUCUCGGGUGCCAA`, “RBNS enrichment (R)” read 0.359.
`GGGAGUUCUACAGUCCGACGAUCUAACCACUUUAUGGGCUUUUUGUUUUGCUUUGGCCCUUUGCUGCCAUUAUUACACACAGGAGAGCCAUUAUCAAAUGUUUUACAGAACAGCAGCGUUAGAGAGUGGGUUUUGGAAUUCUCGGGUGCCAA` — result for “RBNS enrichment (R)”: 0.362.
`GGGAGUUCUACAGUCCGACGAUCUUUAUCCUGUAUUUAUAUGUUGUACACAGUACUGGCCAAUUCUGUAAAUGGAUGUAUUGUACAGAGAACACGAACGUCUCUUCCUUAUUUUACGUCUUCAGCACCCUUGAUGGAAUUCUCGGGUGCCAA` — result for “RBNS enrichment (R)”: 0.47.
`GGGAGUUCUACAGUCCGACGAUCCUAUUCAGGCCCACUGGGAGUUAGGAAGUAUAAGUAAGCCAAGAGAAGUCAGCCCCUGCCCAGAAGAUCUGAAACUAAUAGUAGGAGUUUCCCCAGAAGUCAUUUUCAGCUGGAAUUCUCGGGUGCCAA`: “RBNS enrichment (R)” 0.581.
`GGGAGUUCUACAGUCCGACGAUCUCUAACCCACGCCGGGAUAUCCCUACACCUUCCCAGGGCUUUUAUGUCAGAUGCACCCAAGUCCUUAGCCCAUCUGUGCCACUGCAAGAGUCUGCUCUUGUAUUUCUUUCUGGAAUUCUCGGGUGCCAA` — result for “RBNS enrichment (R)”: 0.807.

Study 4
Target: CCND2, cyclin fold, Cln2 fusion (human)
Technique: yeast growth competition, sequencing
Sample: yeast
Notes: weak parent motif
Relative to: not given
Direction: higher = stronger binding
Parent: WEE1 docking peptide (human); HKTFRKLRLFDTP; partner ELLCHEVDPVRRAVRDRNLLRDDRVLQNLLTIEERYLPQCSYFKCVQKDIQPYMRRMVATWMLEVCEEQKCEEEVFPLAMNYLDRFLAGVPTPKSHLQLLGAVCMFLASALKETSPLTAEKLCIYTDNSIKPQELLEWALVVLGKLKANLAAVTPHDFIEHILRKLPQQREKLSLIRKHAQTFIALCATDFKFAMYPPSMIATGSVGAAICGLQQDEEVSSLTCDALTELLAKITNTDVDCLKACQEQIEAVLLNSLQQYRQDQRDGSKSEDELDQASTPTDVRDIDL
`R8H` — result for “normalised enrichment score”: -0.0102.
For `R8T`, “normalised enrichment score” read 0.0987.
Under “normalised enrichment score”, `D11P` is recorded as 0.345.
For `L7D`, “normalised enrichment score” read -0.251.
Under “normalised enrichment score”, `D11K` is recorded as 0.143.
`F4N`: “normalised enrichment score” 0.11.
`R5L`: “normalised enrichment score” 0.616.
`L7P` — result for “normalised enrichment score”: -0.248.
`R5W` — result for “normalised enrichment score”: -0.292.
Under “normalised enrichment score”, `R8Q` is recorded as 0.444.
`K6E` — result for “normalised enrichment score”: 0.427.
Under “normalised enrichment score”, `F10N` is recorded as 0.0453.
Under “normalised enrichment score”, `K2M` is recorded as -0.191.
`K2P` — result for “normalised enrichment score”: 0.0697.
For `T12W`, “normalised enrichment score” read 0.292.
`F10P`: “normalised enrichment score” 0.405.
`L7T` — result for “normalised enrichment score”: 0.138.
`T3K` — result for “normalised enrichment score”: -0.276.
Under “normalised enrichment score”, `L9F` is recorded as 0.022.

Repeated from above (study 1):
The E-score of `CATCTTGC` is reported as -0.0615.
The E-score of `CTTTAAGA` is reported as -0.106.
`ATGCCACG` gave an E-score of 0.00394.
`CATCGTGG` has an E-score of -0.0204.
`GGCCTGTA` has an E-score of 0.022.
`CAGGACTA` gave an E-score of -0.174.
With `GCCATCAA` the E-score was -0.0571.
`CACCAGTC` gave an E-score of -0.144.
The E-score of `ACTGTTAC` is reported as 0.0405.
`GCAAACGC` gave an E-score of 0.0926.
